Published values gathered from unrelated publications.
Numbered parts are unrelated; each lists some results of a single study. Several values in a cell are separate wells, animals, samples, runs or records.
Chain of UniProt Q9UIK4 (whole entry, looked up): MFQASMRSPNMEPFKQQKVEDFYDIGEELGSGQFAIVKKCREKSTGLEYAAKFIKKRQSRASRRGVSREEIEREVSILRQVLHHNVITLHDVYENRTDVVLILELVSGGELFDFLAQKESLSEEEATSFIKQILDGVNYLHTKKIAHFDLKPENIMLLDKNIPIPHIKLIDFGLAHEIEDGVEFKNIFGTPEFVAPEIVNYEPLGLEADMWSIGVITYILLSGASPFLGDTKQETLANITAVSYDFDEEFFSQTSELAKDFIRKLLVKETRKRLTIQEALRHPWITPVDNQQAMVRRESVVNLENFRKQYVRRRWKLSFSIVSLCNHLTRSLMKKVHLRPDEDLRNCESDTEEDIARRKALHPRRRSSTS
Chain of UniProt P50613 (whole entry, looked up): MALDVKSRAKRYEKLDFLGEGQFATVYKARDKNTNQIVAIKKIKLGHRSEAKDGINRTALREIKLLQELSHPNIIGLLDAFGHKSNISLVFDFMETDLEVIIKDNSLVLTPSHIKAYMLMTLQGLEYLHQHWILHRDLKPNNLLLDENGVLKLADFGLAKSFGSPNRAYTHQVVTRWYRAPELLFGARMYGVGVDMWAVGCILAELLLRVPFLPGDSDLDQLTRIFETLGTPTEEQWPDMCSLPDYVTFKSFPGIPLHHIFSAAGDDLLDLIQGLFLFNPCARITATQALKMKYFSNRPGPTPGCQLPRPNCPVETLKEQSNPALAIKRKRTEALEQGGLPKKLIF
Chain of UniProt Q9BXA7 (whole entry, looked up): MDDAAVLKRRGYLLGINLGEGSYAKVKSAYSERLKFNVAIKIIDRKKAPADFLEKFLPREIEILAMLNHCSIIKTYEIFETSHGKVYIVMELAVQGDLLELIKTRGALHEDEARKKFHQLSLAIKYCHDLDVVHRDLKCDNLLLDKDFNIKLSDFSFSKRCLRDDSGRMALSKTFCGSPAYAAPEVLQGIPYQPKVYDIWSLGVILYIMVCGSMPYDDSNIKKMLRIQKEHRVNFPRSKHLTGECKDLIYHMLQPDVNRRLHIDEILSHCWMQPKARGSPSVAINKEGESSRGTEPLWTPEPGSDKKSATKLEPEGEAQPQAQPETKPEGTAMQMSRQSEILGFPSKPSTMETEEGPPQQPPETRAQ
Chain of UniProt Q14012 (whole entry, looked up): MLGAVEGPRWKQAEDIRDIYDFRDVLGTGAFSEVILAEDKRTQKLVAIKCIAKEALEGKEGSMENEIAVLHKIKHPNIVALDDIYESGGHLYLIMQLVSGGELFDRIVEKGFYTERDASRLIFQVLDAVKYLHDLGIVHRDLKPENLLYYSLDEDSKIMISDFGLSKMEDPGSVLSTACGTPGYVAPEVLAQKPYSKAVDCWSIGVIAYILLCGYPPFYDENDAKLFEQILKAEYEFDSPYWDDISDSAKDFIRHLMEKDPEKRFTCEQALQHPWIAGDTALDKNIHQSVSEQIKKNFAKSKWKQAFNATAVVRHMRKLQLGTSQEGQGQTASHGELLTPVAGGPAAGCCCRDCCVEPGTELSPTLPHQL
Chain of UniProt P23443 (whole entry, looked up): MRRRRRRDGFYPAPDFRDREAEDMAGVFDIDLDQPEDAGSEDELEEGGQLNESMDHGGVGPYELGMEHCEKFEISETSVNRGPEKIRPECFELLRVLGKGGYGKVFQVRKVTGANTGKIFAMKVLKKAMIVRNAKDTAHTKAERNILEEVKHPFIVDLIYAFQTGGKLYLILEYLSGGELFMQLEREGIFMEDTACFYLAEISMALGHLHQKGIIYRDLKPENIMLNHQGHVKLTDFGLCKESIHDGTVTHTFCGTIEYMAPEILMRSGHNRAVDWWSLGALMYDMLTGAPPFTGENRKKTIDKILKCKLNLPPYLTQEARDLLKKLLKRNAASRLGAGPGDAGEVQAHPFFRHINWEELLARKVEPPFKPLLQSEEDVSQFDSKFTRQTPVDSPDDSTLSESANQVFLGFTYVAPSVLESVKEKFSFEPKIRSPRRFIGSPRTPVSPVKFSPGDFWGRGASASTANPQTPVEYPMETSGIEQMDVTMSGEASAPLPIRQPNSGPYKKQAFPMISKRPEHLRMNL
Chain of UniProt Q8WU08 (whole entry, looked up): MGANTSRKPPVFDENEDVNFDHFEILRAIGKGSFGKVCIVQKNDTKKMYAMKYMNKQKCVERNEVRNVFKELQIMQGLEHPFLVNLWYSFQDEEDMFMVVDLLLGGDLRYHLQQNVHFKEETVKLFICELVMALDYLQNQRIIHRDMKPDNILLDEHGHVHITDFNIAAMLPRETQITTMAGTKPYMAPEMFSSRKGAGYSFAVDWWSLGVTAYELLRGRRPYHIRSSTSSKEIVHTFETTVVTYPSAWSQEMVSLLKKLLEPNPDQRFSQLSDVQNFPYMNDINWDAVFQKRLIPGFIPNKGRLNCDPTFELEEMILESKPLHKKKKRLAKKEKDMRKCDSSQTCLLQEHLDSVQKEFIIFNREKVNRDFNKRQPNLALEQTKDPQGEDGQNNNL
Chain of UniProt Q8NI60 (whole entry, looked up): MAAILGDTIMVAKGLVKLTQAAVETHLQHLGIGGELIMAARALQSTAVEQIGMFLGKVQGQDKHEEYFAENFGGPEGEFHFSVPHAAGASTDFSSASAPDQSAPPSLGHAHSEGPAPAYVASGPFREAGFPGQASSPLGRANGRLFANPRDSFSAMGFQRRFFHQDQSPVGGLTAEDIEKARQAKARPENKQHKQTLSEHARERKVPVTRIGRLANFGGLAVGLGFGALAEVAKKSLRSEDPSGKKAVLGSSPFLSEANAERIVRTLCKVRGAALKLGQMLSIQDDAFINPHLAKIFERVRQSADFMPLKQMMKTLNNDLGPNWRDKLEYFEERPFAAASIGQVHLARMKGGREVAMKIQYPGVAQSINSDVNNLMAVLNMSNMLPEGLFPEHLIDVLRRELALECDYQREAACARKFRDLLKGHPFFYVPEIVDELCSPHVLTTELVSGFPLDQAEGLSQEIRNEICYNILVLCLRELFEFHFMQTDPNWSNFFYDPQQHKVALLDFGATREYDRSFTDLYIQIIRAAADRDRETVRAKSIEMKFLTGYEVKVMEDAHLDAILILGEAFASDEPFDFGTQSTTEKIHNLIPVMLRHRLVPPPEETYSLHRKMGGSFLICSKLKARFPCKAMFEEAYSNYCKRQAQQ
Chain of UniProt P51812 (whole entry, looked up): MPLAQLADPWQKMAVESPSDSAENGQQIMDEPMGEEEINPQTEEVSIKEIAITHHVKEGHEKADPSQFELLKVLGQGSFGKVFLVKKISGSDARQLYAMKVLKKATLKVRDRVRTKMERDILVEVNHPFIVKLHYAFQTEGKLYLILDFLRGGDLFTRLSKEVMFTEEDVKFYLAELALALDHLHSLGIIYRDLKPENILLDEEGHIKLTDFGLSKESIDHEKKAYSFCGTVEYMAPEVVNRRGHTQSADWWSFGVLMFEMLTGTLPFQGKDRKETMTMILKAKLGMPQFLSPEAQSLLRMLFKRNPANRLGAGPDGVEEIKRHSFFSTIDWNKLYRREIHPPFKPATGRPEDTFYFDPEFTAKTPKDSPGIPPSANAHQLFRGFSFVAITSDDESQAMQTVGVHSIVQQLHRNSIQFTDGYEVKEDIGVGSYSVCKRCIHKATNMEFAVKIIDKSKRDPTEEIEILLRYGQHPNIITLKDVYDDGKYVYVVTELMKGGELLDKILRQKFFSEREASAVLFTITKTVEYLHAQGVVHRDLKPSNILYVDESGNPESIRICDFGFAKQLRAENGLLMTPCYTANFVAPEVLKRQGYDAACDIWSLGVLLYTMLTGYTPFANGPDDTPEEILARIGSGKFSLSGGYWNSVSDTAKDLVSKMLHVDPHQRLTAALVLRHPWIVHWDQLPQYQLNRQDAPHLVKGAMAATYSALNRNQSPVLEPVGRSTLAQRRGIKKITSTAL
Chain of UniProt P42336 (whole entry, unmodified, looked up): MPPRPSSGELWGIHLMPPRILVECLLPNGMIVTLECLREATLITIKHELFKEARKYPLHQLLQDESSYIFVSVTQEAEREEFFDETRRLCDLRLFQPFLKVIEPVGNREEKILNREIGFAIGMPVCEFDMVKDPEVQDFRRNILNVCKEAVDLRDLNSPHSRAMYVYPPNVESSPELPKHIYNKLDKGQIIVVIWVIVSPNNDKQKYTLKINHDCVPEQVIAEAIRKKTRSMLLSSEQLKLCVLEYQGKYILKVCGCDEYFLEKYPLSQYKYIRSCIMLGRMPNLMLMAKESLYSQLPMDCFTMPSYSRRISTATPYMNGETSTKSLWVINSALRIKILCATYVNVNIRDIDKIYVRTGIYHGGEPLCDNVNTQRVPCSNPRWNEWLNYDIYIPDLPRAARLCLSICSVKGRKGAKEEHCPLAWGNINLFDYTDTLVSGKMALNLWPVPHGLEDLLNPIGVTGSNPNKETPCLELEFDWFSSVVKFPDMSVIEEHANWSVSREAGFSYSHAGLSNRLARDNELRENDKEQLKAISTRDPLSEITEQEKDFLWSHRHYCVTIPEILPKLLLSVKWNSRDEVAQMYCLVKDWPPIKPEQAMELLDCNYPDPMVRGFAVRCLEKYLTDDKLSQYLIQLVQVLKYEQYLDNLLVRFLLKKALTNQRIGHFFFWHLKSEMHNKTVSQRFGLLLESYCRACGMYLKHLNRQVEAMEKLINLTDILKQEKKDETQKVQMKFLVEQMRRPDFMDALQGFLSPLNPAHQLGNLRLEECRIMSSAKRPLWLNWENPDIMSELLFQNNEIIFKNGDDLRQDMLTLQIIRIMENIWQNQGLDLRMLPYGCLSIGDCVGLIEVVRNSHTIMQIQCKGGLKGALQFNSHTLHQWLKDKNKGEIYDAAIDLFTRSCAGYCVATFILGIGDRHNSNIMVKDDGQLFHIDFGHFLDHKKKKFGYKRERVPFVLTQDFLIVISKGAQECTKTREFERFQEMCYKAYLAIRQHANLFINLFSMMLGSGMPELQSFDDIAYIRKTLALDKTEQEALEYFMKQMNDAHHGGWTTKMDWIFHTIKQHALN

Set 1 — method: phase 2a trial; host: idiopathic pulmonary fibrosis patients
SMILES: CC(C)n1cnc(-c2ccc(F)cc2)c1-c1ncc(C(=O)Nc2ccc(N3CCN(C)CC3)cc2)[nH]1
| conditions | patients with abdominal distension |
| --- | --- |
| 60 mg once daily, adverse event grade 3 | 0% |
| dose not given, adverse event grade 2, all dose arms pooled | 0% |
| dose not given, adverse event grade 5, all dose arms pooled | 0% |
| 30 mg once daily, adverse event grade 3 | 0% |
| 60 mg once daily, adverse event grade 5 | 0% |

Set 2 — concentration: 1 µM
Structure (SMILES): C=CC(=O)N1CCC([C@@H]2CCNc3c(C(N)=O)c(-c4ccc(Oc5ccccc5)cc4)nn32)CC1
| target | assay | inhibition |
| --- | --- | --- |
| TSSK1B (Homo sapiens, UniProt Q9BXA7) | enzyme activity, inhibitor | 1% |
| NEK1 (Homo sapiens, UniProt Q96PY6) | enzyme activity, inhibitor | 15% |
| EGFR (Homo sapiens, UniProt P00533) | cell-free assay | 99% |
| FLT3 (Homo sapiens, UniProt P36888, D835V/ITD) | enzyme activity, inhibitor | 0% |
| Tyrosine-protein kinase ABL1, phosphorylated (ABL1, Homo sapiens, UniProt P00519, F317L) | enzyme activity, inhibitor | 32% |
| EPHB2 (Homo sapiens, UniProt P29323) | cell-free assay | 9% |

Set 3 — read-out: cell-free assay; method: competition with immobilised ligand; concentration: 0.1 µM
SMILES: COCCOc1nc(-c2ccc(Cl)nc2)nc2c1CN(C(=O)c1ncn3ccccc13)CC2
| target | remaining binding [%] |
| --- | --- |
| RIOK2 (Homo sapiens, UniProt Q9BVS4) | 100 |
| DAPK2 (Homo sapiens, UniProt Q9UIK4) | 100 |
| MARK2 (Homo sapiens, UniProt Q7KZI7) | 100 |
| ERN1 (Homo sapiens, UniProt O75460) | 100 |
| EGFR (Homo sapiens, UniProt P00533, L861Q) | 99 |
| FGFR1 (Homo sapiens, UniProt P11362) | 100 |
| GRK4 (Homo sapiens, UniProt P32298) | 73 |
| PIK3CB (Homo sapiens, UniProt P42338) | 100 |
| EPHA7 (Homo sapiens, UniProt Q15375) | 100 |
| FLT3 (Homo sapiens, UniProt P36888, D835V/ITD) | 100 |
| PIKFYVE (Homo sapiens, UniProt Q9Y2I7) | 90 |
| MET (Homo sapiens, UniProt P08581, M1250T) | 71 |
| CSNK1A1L (Homo sapiens, UniProt Q8N752) | 100 |
| EGFR (Homo sapiens, UniProt P00533, A750P/del747-749) | 85 |
| EGFR (Homo sapiens, UniProt P00533, G719C) | 85 |
| NEK9 (Homo sapiens, UniProt Q8TD19) | 100 |
| Ribosomal protein S6 kinase alpha-3, C-terminal kinase domain (RPS6KA3, Homo sapiens, UniProt P51812) | 82 |
| CSK (Homo sapiens, UniProt P41240) | 100 |
| RPS6KB1 (Homo sapiens, UniProt P23443) | 100 |
| NEK10 (Homo sapiens, UniProt Q6ZWH5) | 100 |
| PIK3CA (Homo sapiens, UniProt P42336, C420R) | 95 |
| FGFR3 (Homo sapiens, UniProt P22607) | 100 |
| ULK3 (Homo sapiens, UniProt Q6PHR2) | 81 |
| COQ8A (Homo sapiens, UniProt Q8NI60) | 100 |
| CAMK1 (Homo sapiens, UniProt Q14012) | 100 |

Set 4 — read-out: binding; action: competitor; method: NanoBRET; cells: HEK293
Compound: CC(C)C(=O)N1CCN(c2nc(OC[C@@H]3CCCN3C)nc3c2CCN(c2cccc4cccc(Cl)c24)C3)C[C@@H]1CC#N
KRAS Q61L: GTPase KRas (KRAS, Homo sapiens, UniProt P01116, Q61L)
KRAS Q61H: GTPase KRas (KRAS, Homo sapiens, UniProt P01116, Q61H)
| target | conditions | normalized BRET |
| --- | --- | --- |
| GTPase KRas (KRAS, Homo sapiens, UniProt P01116, G12D) | 3.7 µM | 116% and 106% and 95% |
| KRAS Q61L | 45.7 nM | 92.2% and 97.3% and 99.3% |
| KRAS Q61H | 412 nM | 93.1% and 94.4% and 103% |
| KRAS Q61H | 45.7 nM | 95.9% and 94.1% and 101% |
| GTPase KRas (KRAS, Homo sapiens, UniProt P01116, G13D) | 15.2 nM | 97.1% and 96.4% and 113% |
| KRAS Q61L | 1.24 µM | 97.1% and 97.5% and 93.4% |

Set 5 — cell line: mouse MPNST tumor cells; method: high-content immunofluorescence imaging; refers to: nuclear SOX9; concentration: 10 µM; time: 12 h; notes: mean of 2 replicates; reference: DMSO control; reading: higher = more nuclear SOX9
| SMILES | nuclear SOX9 intensity |
| --- | --- |
| Cc1cc(=O)oc2c(C=O)c(O)ccc12 | 81.4 % of DMSO |
| CC(=O)CC(c1ccc([N+](=O)[O-])cc1)c1c(O)c2ccccc2oc1=O (centres unmarked) | 101 % of DMSO |
| O=C(O)c1n[nH]c2c1CC1CC21 (centres unmarked) | 94.6 % of DMSO |
| COc1nccnc1NS(=O)(=O)c1cccc(Cl)c1Cl | 91 % of DMSO |
| Cc1ccc(C)c(Oc2ccncc2C(=O)N2CCN(C3CC3)c3ccccc32)c1 | 113 % of DMSO |

Set 6 — concentration: 1 µM
SMILES: C[C@H]1CC[C@H](n2c3cnccc3c3cnc(Nc4ccc5c(n4)CCN(C(=O)CO)C5)nc32)CC1
| target | assay | remaining binding |
| --- | --- | --- |
| KDR (Homo sapiens, UniProt P35968) | cell-free assay, competition with immobilised ligand | 87% |
| EPHA4 (Homo sapiens, UniProt P54764) | cell-free assay, competition with immobilised ligand | 100% |
| FRK (Homo sapiens, UniProt P42685) | cell-free assay, competition with immobilised ligand | 84% |
| STK32A (Homo sapiens, UniProt Q8WU08) | binding | 100% |
| CDK7 (Homo sapiens, UniProt P50613) | binding, competition with immobilised ligand | 57% |
| ITK (Homo sapiens, UniProt Q08881) | binding | 79% |

Some of these lines once more (set 1):
| conditions | patients with abdominal distension |
| --- | --- |
| 60 mg once daily, adverse event grade 3 | 0% |
| dose not given, adverse event grade 2, all dose arms pooled | 0% |
| dose not given, adverse event grade 5, all dose arms pooled | 0% |
| 30 mg once daily, adverse event grade 3 | 0% |
| 60 mg once daily, adverse event grade 5 | 0% |
